Measured values gathered from unrelated publications.
Parts stem from different laboratories: compare values within a part only.
Chain of UniProt P06493 (whole entry, looked up): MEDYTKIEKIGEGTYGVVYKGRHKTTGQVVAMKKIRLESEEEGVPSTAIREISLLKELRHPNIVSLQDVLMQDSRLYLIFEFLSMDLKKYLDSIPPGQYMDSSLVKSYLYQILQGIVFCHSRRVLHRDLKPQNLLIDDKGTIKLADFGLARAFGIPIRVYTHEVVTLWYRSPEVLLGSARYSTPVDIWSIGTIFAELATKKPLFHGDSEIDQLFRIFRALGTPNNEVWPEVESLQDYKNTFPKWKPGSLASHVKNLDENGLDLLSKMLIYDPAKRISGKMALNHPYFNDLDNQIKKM
Chain of UniProt Q13470 (whole entry, looked up): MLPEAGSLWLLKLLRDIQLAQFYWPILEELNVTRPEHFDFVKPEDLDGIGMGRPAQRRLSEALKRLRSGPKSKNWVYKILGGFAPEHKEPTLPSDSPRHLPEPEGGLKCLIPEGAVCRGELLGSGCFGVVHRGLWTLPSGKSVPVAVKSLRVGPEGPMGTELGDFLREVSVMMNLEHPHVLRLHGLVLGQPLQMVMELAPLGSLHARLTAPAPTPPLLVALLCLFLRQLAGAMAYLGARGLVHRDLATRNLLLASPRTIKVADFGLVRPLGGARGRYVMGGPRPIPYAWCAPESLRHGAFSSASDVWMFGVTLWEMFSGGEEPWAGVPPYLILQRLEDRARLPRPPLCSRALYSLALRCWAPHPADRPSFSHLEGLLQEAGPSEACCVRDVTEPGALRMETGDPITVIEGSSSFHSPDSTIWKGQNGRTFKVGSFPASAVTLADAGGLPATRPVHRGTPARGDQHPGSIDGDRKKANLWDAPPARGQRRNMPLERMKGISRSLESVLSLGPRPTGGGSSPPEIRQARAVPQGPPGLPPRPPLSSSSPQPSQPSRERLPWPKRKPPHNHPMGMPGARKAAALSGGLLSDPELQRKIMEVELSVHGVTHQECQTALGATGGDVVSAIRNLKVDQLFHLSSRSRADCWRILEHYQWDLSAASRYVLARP
Chain of UniProt Q16620 (whole entry, looked up): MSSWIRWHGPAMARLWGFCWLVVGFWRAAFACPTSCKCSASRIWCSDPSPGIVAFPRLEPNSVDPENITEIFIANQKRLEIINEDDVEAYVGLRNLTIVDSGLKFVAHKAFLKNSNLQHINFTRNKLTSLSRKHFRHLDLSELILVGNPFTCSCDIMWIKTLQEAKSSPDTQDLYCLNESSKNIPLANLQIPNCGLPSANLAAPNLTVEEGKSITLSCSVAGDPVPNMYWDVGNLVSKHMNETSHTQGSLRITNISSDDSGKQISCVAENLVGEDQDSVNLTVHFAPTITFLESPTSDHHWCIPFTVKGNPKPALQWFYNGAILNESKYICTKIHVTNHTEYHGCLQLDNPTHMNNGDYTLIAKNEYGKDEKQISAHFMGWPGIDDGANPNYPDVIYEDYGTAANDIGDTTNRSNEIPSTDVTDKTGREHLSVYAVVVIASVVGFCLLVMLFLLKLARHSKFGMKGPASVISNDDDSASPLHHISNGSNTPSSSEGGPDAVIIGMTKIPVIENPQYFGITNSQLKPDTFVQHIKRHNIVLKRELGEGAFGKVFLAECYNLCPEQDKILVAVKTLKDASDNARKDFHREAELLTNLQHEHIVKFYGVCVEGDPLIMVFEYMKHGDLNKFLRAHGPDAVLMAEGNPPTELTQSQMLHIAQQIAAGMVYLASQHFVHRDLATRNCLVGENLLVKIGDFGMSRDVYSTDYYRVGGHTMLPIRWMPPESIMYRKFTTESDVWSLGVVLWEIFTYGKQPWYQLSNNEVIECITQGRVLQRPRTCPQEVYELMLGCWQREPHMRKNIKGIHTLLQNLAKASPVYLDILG
Chain of UniProt Q8NG66 (whole entry, looked up): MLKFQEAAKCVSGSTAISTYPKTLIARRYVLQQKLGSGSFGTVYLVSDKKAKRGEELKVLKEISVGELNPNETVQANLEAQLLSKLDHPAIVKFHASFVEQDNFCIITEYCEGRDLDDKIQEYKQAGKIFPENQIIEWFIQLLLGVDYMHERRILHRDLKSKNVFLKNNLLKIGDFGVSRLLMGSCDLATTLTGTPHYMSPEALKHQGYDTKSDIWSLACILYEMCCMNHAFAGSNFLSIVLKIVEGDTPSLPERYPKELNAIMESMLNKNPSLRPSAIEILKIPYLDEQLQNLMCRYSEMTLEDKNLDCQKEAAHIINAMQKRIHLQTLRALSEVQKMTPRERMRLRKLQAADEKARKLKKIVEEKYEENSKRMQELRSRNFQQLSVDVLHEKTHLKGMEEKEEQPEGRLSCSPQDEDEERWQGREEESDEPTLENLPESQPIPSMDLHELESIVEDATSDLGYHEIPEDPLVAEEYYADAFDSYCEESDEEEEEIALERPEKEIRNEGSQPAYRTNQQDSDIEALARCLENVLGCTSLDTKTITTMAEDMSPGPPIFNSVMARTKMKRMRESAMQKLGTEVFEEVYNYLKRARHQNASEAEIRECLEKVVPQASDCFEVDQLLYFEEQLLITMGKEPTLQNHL
Chain of UniProt Q16539 (whole entry, looked up): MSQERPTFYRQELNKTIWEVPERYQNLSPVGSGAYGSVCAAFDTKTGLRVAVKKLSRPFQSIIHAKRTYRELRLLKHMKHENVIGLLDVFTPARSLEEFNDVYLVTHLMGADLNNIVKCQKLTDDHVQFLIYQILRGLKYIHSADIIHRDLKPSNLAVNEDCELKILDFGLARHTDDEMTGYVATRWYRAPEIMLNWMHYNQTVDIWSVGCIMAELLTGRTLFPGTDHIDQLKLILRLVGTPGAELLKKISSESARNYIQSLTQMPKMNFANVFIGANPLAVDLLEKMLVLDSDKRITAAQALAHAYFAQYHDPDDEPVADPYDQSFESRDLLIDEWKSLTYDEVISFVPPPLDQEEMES
Chain of UniProt P51813 (whole entry, looked up): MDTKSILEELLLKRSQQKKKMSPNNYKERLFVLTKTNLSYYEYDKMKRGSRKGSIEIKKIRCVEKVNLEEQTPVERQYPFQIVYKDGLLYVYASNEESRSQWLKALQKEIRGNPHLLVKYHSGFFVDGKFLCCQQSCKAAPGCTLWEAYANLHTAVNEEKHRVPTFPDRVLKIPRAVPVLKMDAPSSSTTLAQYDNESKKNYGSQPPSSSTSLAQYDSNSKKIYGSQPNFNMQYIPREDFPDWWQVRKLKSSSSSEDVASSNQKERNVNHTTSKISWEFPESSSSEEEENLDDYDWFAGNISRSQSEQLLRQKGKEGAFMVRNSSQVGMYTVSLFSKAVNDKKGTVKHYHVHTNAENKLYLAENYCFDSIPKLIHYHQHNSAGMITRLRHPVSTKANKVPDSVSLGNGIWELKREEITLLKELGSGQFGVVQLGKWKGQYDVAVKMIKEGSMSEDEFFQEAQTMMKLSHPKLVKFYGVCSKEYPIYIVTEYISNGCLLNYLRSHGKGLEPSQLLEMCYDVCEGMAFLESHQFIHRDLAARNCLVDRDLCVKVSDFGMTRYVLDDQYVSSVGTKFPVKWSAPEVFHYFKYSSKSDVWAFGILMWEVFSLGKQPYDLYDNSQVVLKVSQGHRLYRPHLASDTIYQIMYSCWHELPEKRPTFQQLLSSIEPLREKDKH
Chain of UniProt Q9H4B4 (whole entry, looked up): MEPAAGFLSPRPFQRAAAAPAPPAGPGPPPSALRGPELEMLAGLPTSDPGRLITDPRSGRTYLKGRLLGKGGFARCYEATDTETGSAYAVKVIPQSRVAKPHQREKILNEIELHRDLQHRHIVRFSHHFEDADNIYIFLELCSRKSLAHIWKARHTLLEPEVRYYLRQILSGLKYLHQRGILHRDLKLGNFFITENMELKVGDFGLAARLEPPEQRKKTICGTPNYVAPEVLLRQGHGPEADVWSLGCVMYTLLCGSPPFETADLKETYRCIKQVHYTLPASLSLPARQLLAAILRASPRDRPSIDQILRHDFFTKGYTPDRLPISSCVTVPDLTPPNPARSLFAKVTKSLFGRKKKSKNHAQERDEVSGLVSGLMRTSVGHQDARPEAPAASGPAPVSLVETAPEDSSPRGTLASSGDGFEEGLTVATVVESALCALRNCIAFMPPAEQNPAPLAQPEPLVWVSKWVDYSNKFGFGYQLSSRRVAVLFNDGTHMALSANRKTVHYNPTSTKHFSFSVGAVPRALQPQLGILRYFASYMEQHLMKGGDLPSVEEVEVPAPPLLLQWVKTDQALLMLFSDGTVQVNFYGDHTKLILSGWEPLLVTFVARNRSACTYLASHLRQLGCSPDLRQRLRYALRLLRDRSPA
Chain of UniProt Q6P2M8 (whole entry, looked up): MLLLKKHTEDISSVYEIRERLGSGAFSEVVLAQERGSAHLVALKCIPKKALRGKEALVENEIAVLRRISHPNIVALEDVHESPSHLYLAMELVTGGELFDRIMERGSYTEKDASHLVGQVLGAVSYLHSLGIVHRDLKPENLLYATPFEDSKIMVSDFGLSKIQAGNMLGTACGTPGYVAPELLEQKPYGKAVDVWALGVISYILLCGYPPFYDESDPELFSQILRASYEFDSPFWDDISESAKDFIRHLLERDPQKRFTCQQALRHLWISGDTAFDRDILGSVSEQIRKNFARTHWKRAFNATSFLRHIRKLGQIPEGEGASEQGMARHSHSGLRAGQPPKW

Series 1 — technique: competition with immobilised ligand; concentration: 1 µM
Compound: CCc1ccccc1C(=O)Nc1n[nH]c2c(C)c(F)c(C3C(C#N)=C(C)N(C)C(C)=C3C#N)cc12
target | read-out | remaining binding [%]
NEK11 (Homo sapiens, UniProt Q8NG66) | cell-free assay | 100
CIT (Homo sapiens, UniProt O14578) | cell-free assay | 90
EGFR (Homo sapiens, UniProt P00533, del752-759) | cell-free assay | 52
BMX (Homo sapiens, UniProt P51813) | cell-free assay | 96
TNK1 (Homo sapiens, UniProt Q13470) | cell-free assay | 100
PIP5K1C (Homo sapiens, UniProt O60331) | binding | 56
PRKCD (Homo sapiens, UniProt Q05655) | cell-free assay | 55
CAMK2A (Homo sapiens, UniProt Q9UQM7) | cell-free assay | 47
NTRK2 (Homo sapiens, UniProt Q16620) | cell-free assay | 100

Series 2 — read-out: acetyl-histone H4 peptide binding; technique: AlphaScreen displacement; concentration: 50 µM
Target: Bromodomain-containing protein 4, BD1 (BRD4, Homo sapiens, UniProt O60885)
SMILES | inhibition [%]
CC(=O)Nc1ccc(C=C(C#N)c2nc3ccccc3s2)cc1 | 7.75
COc1ccc(C(=O)Nc2sc3c(c2C(N)=O)CCCC3)cc1OC | 7
CCCOc1ccc(NC(=O)Nc2ccc(Cl)c(Cl)c2)cc1 | 3.85
CCOc1c(Br)ccc2c1sc1nc[nH]c(=O)c12 | 8.35
O=c1[nH]c(CN2CCC(O)C2)nc2c1SC1C=CC(c3ccc(O)cc3)=CC21 (centres unmarked) | 99.5
Cc1cn([C@H]2C[C@H](N=[N+]=[N-])[C@@H](CO)O2)c(=O)[nH]c1=O | 4.8
O=c1cc(-c2ccc(O)cc2)oc2cc(O)cc(O)c12.O=c1cc(-c2ccc(O)cc2)oc2cc(O)cc(O)c12 | 31.8
OC1CCCN(Cc2c(-c3ccco3)[nH]c3ncccc23)C1 (centres unmarked) | -0.2

Series 3 — action: agonist
Target: Beta-1 adrenergic receptor (ADRB1, Homo sapiens, UniProt P08588)
Chain of UniProt P08588 (whole entry, looked up): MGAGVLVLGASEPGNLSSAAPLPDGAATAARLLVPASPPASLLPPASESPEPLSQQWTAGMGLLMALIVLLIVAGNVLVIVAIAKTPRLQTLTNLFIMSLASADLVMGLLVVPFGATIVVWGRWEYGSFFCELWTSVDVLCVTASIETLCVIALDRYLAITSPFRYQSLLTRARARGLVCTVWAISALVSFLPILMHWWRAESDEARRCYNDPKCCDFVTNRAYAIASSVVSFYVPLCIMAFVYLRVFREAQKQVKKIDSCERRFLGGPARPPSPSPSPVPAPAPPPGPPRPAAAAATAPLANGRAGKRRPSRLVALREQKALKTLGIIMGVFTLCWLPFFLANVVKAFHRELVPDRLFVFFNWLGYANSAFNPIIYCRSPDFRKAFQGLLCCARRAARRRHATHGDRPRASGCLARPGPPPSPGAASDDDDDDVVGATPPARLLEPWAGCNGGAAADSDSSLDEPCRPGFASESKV
SMILES | EC50 [µM]
CC#CCn1cc2c3c(cccc31)[C@H](CC(C)C)N[C@H](C(=O)NCCC)C2 | 2.7
COc1ncc(-c2nccc3c(=O)cc(N(C)c4ccccc4)oc23)cn1 | ≥ 100
c1cc(-c2cc3c(ccn3Cc3ccncc3)c(N3CCOCC3)n2)c2cn[nH]c2c1 | ≥ 100
COc1cc(O)c2c3c(c(O)cc(C)c13)C(=O)OC2 | ≥ 100
CC(O)c1ccc(N2CCN(C(O)[C@H](Cc3ccc(N(C)[S+](=O)([O-])c4cccc5cnccc45)cc3)N(C)C)CC2)cc1 (some centres unmarked) | ≥ 100
COc1ccccc1N1CCN([S+](=O)([O-])c2c(C)cc(C)cc2C)CC1 | ≥ 100
Cc1oc(C(O)c2ccccc2)nc1C(=O)NCCc1c[nH]cn1 (centres unmarked) | ≥ 100
CN(C)c1cccc(-c2ncc3c(n2)OCCN(Cc2ccc(F)cc2F)C3=O)c1 | ≥ 100
COc1cc(CN[C@H]2CC[C@H](O)CC2)ccc1OCC(O)CN1CCSCC1 (some centres unmarked) | ≥ 100
Cc1noc2c(-c3ccc(N4CCOCC4)cc3)cc(-c3ccccc3)nc12 | ≥ 100

Series 4 — read-out: enzyme activity; action: inhibitor; concentration: 0.5 µM; reference: control
SMILES: CCCC(=O)Oc1ccc2[nH]c(C(=O)c3cc4ccccc4[nH]3)cc2c1
target | remaining activity [%]
KDR (Homo sapiens, UniProt P35968) | 90.4
AKT2 (Homo sapiens, UniProt P31751) | 105
MAPK14 (Homo sapiens, UniProt Q16539) | 102
MET (Homo sapiens, UniProt P08581) | 103
ROCK1 (Homo sapiens, UniProt Q13464) | 105
PAK3 (Homo sapiens, UniProt O75914) | 102
PLK3 (Homo sapiens, UniProt Q9H4B4) | 98.4
PRKG2 (Homo sapiens, UniProt Q13237) | 97.6
MARK2 (Homo sapiens, UniProt Q7KZI7) | 83.1
PNCK (Homo sapiens, UniProt Q6P2M8) | 99.4
Myosin-IIIb (MYO3B, Homo sapiens, UniProt Q8WXR4) | 98.6
Cyclin-dependent kinase 1, with cyclin A (CDK1, Homo sapiens, UniProt P06493) | 87.3
RPS6KA4 (Homo sapiens, UniProt O75676) | 99.1
TLK2 (Homo sapiens, UniProt Q86UE8) | 97.1

Repeated from above (series 2):
SMILES | inhibition [%]
CC(=O)Nc1ccc(C=C(C#N)c2nc3ccccc3s2)cc1 | 7.75
COc1ccc(C(=O)Nc2sc3c(c2C(N)=O)CCCC3)cc1OC | 7
CCCOc1ccc(NC(=O)Nc2ccc(Cl)c(Cl)c2)cc1 | 3.85
